# Measurements pooled from the literature.
# Each line is one published result; not all experiments were run side by side. “And” joins repeats or separate records; there may be more than shown. ± marks the error that the study gave.
# CDK7: Cyclin-dependent kinase 7 (CDK7, Homo sapiens, UniProt P50613)
# Chain of UniProt P50613 (whole entry, looked up): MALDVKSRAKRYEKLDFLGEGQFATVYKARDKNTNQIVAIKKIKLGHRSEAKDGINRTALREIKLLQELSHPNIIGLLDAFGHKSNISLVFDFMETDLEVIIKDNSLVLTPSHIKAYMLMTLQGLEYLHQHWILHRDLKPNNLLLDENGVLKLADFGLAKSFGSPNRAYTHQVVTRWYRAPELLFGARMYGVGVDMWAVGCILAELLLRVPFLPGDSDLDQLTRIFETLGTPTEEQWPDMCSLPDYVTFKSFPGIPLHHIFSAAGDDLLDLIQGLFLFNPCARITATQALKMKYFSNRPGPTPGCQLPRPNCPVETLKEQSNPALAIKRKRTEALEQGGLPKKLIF
# CDK7 with cyclin H, MAT1: Cyclin-dependent kinase 7, with cyclin H, MAT1 (CDK7, Homo sapiens, UniProt P50613)
SMILES,target,assay,system,conditions,how to read,measurement,value
Cc1c(O)cc2oc3c(c(=O)c2c1O)-c1ccccc1OC3O (stereo not drawn),CDK7,inhibitor,,10 µM,,inhibition,60.4 ± 0.2%
CNc1ncc2c(/C=C/C(=O)N3CCC(OC)CC3)nn(Cc3cccc(C(F)(F)F)c3)c2n1,"CDK7 with cyclin H, MAT1","kinase activity, inhibitor",,1 µM,baseline: untreated control,remaining activity,90%
O=C(NC1CCC1)c1ccc2nc(-c3cccc(NS(=O)(=O)NCCN4CCCCC4)c3)cn2c1,CDK7,enzyme activity,,10 µM,,remaining activity,75%
CN1CC(Oc2cnc(C#N)cc2-c2ccn3nc(NC(=O)C4CC4)cc3c2)C1,"CDK7 with cyclin H, MAT1","inhibitor, KinaseProfiler panel",,1 µM,,inhibition,-29%
CN(C)C1CCN(CC#Cc2nn(C3CCCC3)c3nc(NCc4ccccc4)ncc23)C1 (stereo not drawn),"CDK7 with cyclin H, MAT1","enzyme activity, inhibitor, Z'-LYTE",,1000 nM,,inhibition,1%
CN(C)C/C=C/C(=O)Nc1ccc(C(=O)Nc2cccc(Nc3ncc(Cl)c(-c4c[nH]c5ccccc45)n3)c2)cc1,"CDK7 with cyclin H, MAT1","kinase activity, Kinase-Glo luminescence",,concentration not given,,normalized luminescence,0.801 and 1.33 and 1.12
CS(=O)(=O)Nc1cccc(-c2csc(NC(=O)CSc3nc4nccnc4c(=O)n3CCc3ccccc3)n2)c1,"CDK7 with cyclin H, MAT1","kinase activity, inhibitor",,10 µM,,inhibition,-6%
Cc1cc(Nc2cc(N3CCN(C)CC3)nc(Sc3ccc(NC(=O)C4CC4)cc3)n2)[nH]n1,CDK7,"kinase activity, KinaseProfiler",,"0.03 µM, species human",baseline: control,remaining activity,98%
O=C(CSc1nc2nccnc2c(=O)n1CCc1ccccc1)Nc1nccs1,"CDK7 with cyclin H, MAT1","kinase activity, inhibitor",,10 µM,,inhibition,-48%
CC[C@@H]1[C@H](F)C(=O)N[C@@H]1COc1nccc2cc(C(N)=O)c(OC)cc12,CDK7,"ATP-site probe binding, ActivX profiling",THP-1 cell lysate,"0.2 mM, Lys2 site",,inhibition,-4.5%
COc1cc(-c2cncc3c2CN(C)Cc2cc(N4CCNCC4)ccc2-3)cc(OC)c1OC,CDK7,kinase activity,,"1 µM, human enzyme, added: ATP 10 µM",baseline: DMSO control,remaining activity,115%
CNc1cc(Oc2cc(C(=O)Nc3cc(N4CCN(C)CC4)cc(C(F)(F)F)c3)ccc2C)ncn1,CDK7,kinase activity,,1 µM,,inhibition,-12.7%
